Published values collected from several papers.
Each numbered part is a random draw from the data of one study; scales do not carry over between parts. ± gives the spread as reported.

Study 1
Target: U2AF2 148-342 (Homo sapiens, UniProt P26368)
Sequence of UniProt P26368 (whole entry, looked up): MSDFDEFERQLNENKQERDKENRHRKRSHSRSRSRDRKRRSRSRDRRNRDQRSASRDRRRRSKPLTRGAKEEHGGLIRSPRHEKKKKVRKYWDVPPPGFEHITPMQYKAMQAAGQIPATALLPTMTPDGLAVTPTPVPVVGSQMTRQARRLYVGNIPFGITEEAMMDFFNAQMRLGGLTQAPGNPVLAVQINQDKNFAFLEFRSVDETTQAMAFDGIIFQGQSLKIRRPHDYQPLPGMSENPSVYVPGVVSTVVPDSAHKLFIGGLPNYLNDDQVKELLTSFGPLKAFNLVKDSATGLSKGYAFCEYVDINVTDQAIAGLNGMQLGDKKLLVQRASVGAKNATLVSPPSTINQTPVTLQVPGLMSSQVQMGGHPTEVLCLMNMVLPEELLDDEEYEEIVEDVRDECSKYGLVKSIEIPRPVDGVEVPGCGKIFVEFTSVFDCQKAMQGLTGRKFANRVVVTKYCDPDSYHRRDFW
Method: sequencing of bound RNA
Molecule type: RNA
Setting: motif only
All molecules: ssRNA
With `CUCGUUUCU` the Kd was 4210 nM.
`CAUCUCCUU` has a Kd of 1670 nM.
For `UUCGUUAUC`, the Kd was 2720 nM.
With `GUCUUUCUU` the Kd was 1560 nM.
`GUUUCAUUC` gave a Kd of 3730 nM.
The Kd of `GUAUUGUAG` is reported as 3980 nM.
With `GUUUUUGUU` the Kd was 710 nM.
The Kd of `GUUAGUUUA` is reported as 10600 nM.

Study 2
Cell line: CYB5R4 knockout human cells
Effect on: PP4 interaction
Method: 3xFLAG-PP4C IP-MS
Tested at: concentration not given
Reference: CYB5R4 KO over parental
For `DNA topoisomerase 2-alpha (human)`, “log2 fold change” read -0.92.
For `human FABP5`, “log2 fold change” read 4.59.
`poly(rC)-binding protein 1, human` — result for “log2 fold change”: 0.99.
For `human CCAR2`, “log2 fold change” read -0.32.
Under “log2 fold change”, `protein-L-isoaspartate O-methyltransferase, human` is recorded as 0.95.
For `human TUBB4B`, “log2 fold change” read -0.61.
`human CHD5`: “log2 fold change” -2.41.
`human G3BP1`: “log2 fold change” -1.33.

Mixed results
SPT15 full length assumed: SPT15 full length assumed (Saccharomyces cerevisiae, UniProt P13393)
Sequence of UniProt P13393 (whole entry, looked up): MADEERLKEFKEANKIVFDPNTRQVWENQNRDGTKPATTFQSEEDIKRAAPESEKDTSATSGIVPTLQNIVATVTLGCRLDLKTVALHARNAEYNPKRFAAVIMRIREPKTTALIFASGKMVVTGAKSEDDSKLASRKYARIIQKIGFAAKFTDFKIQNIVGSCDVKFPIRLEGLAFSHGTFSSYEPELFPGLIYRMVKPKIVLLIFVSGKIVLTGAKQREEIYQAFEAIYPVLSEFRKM
`human ME2 P78D` gave a Hill coefficient of 1.04 ± 0.03 (enzyme activity, NADH absorbance; with fumarate 3 mM, together with: L-malate varied).
For `CGCGCCTGCGCTCTATATATACAGCGGCCCTGCCCTCAAGTCAATCGGTCC (dsDNA; 5'-amino-C6 primer)`, the Kd was 16.1 ± 0.57 nM (SPT15 full length assumed; array; double-stranded DNA, one strand shown; TBP alone).
The Hill coefficient of `human ME2 Q51H` is reported as 1.16 ± 0.09 (enzyme activity, NADH absorbance; with fumarate 3 mM, together with: L-malate varied).
`DNA 1 GCCGGGCCGGCCGGCCGGCCCCCGGGGCCCGGCGCTCAATTCAATCGGTCC / DNA 2 GGACCGATTGACTTGAGCGCCGGGCCCCGGGGGCCGGCCGGCCGGCCCGGC (dsDNA; blunt; C:T mismatch; 5'-amino-C6 primer)` gave a Kd of 5.9 ± 2.6 nM (SPT15 full length assumed; EMSA; double-stranded DNA).

For quick reference, copied from above (mixed results):
For `CGCGCCTGCGCTCTATATATACAGCGGCCCTGCCCTCAAGTCAATCGGTCC (dsDNA; 5'-amino-C6 primer)`, the Kd was 16.1 ± 0.57 nM (SPT15 full length assumed; array; double-stranded DNA, one strand shown; TBP alone).
The Hill coefficient of `human ME2 Q51H` is reported as 1.16 ± 0.09 (enzyme activity, NADH absorbance; with fumarate 3 mM, together with: L-malate varied).
`DNA 1 GCCGGGCCGGCCGGCCGGCCCCCGGGGCCCGGCGCTCAATTCAATCGGTCC / DNA 2 GGACCGATTGACTTGAGCGCCGGGCCCCGGGGGCCGGCCGGCCGGCCCGGC (dsDNA; blunt; C:T mismatch; 5'-amino-C6 primer)` gave a Kd of 5.9 ± 2.6 nM (SPT15 full length assumed; EMSA; double-stranded DNA).
